Results of several laboratories.
Lines come from different studies, so protocols differ. ± marks the error that the study gave.
Spike glycoprotein Beta variant: Spike glycoprotein, Beta variant (Severe acute respiratory syndrome coronavirus 2, UniProt P0DTC2)
Cacna1b with α2δ, β3 subunits: Voltage-dependent N-type calcium channel subunit alpha-1B, with α2δ, β3 subunits (Cacna1b, Rattus norvegicus, UniProt Q02294)
bglR: Beta-glucuronidase (bglR, Clostridium perfringens, UniProt Q8XP19)

By UniProt entry, the sequences of proteins in these tests, tags left out. Where a name states a change or a piece, a line headed by the entry shows the natural chain unless it says otherwise.
UniProt Q02294, whole entry, looked up: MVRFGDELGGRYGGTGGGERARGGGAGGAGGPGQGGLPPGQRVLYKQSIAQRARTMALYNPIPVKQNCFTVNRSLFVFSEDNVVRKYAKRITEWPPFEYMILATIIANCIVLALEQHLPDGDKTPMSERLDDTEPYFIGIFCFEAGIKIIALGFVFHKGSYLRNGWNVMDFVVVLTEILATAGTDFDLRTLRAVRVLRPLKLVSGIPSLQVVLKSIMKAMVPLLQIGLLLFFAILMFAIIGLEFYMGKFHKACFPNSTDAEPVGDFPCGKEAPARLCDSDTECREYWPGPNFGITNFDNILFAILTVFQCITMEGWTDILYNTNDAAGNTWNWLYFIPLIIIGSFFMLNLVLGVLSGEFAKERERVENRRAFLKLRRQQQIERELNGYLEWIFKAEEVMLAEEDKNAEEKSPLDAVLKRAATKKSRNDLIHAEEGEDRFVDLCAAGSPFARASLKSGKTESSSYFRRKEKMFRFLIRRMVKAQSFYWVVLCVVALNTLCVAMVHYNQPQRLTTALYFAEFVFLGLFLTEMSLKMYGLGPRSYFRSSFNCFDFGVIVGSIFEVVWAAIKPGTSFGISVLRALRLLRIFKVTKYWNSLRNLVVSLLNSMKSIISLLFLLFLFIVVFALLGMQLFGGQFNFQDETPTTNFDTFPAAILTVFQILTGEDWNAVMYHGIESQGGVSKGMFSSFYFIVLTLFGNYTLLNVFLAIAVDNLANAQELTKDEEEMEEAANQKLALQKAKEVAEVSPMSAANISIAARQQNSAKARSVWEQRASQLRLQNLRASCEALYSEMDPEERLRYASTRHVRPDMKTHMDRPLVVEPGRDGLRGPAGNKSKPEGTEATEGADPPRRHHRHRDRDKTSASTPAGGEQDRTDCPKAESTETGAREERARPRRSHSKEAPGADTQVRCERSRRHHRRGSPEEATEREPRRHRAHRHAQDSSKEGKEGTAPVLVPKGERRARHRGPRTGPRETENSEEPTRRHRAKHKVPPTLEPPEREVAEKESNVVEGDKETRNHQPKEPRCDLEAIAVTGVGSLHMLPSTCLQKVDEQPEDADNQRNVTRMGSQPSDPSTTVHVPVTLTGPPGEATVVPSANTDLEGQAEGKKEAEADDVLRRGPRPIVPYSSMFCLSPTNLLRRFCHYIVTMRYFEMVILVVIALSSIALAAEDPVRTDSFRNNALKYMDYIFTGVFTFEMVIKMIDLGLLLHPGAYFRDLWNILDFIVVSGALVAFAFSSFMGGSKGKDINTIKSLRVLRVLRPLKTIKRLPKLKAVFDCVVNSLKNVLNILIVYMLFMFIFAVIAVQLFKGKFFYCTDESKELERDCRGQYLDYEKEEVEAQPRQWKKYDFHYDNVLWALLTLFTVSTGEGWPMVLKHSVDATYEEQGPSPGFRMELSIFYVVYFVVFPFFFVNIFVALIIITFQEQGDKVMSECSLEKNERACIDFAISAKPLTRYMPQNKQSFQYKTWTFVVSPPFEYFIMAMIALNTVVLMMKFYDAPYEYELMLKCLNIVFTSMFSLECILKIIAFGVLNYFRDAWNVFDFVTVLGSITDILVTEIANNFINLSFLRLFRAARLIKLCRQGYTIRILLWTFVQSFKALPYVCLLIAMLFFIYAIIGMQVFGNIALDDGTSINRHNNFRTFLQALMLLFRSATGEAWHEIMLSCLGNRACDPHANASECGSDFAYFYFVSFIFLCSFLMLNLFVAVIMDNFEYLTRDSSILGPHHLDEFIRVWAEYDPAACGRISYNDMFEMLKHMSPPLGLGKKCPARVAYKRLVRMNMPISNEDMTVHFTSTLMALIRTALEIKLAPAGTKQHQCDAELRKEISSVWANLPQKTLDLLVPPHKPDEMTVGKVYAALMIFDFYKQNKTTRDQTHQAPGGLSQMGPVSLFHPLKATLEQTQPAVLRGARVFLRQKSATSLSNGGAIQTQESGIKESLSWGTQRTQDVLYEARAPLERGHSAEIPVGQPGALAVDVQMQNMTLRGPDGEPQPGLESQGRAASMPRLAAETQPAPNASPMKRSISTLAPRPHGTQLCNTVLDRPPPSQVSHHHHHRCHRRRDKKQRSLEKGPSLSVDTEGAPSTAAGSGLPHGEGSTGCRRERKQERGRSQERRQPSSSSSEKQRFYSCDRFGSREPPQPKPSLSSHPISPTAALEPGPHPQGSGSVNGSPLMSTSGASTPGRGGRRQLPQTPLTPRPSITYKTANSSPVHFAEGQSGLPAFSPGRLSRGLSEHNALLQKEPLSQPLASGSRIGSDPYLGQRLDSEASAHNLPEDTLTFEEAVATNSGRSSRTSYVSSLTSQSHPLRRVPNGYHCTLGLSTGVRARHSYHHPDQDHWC
UniProt O42275, whole entry, looked up: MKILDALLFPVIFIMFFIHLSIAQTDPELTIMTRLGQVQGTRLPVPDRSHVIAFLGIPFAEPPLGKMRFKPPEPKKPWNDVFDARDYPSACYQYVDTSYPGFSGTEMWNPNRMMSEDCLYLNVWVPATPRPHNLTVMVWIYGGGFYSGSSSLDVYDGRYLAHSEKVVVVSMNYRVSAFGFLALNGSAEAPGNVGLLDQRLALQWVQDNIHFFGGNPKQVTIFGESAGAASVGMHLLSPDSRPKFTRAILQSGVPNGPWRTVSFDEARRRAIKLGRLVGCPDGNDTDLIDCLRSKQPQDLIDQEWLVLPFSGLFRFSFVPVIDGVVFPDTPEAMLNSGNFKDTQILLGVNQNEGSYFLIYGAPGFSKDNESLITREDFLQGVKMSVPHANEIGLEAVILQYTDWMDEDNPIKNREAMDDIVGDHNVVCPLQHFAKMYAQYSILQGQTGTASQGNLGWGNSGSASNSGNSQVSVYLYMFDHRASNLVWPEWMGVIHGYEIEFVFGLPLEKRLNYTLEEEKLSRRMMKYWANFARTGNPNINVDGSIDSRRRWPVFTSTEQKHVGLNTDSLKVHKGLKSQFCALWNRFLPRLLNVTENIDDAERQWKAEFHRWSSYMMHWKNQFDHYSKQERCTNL
UniProt P04775, whole entry: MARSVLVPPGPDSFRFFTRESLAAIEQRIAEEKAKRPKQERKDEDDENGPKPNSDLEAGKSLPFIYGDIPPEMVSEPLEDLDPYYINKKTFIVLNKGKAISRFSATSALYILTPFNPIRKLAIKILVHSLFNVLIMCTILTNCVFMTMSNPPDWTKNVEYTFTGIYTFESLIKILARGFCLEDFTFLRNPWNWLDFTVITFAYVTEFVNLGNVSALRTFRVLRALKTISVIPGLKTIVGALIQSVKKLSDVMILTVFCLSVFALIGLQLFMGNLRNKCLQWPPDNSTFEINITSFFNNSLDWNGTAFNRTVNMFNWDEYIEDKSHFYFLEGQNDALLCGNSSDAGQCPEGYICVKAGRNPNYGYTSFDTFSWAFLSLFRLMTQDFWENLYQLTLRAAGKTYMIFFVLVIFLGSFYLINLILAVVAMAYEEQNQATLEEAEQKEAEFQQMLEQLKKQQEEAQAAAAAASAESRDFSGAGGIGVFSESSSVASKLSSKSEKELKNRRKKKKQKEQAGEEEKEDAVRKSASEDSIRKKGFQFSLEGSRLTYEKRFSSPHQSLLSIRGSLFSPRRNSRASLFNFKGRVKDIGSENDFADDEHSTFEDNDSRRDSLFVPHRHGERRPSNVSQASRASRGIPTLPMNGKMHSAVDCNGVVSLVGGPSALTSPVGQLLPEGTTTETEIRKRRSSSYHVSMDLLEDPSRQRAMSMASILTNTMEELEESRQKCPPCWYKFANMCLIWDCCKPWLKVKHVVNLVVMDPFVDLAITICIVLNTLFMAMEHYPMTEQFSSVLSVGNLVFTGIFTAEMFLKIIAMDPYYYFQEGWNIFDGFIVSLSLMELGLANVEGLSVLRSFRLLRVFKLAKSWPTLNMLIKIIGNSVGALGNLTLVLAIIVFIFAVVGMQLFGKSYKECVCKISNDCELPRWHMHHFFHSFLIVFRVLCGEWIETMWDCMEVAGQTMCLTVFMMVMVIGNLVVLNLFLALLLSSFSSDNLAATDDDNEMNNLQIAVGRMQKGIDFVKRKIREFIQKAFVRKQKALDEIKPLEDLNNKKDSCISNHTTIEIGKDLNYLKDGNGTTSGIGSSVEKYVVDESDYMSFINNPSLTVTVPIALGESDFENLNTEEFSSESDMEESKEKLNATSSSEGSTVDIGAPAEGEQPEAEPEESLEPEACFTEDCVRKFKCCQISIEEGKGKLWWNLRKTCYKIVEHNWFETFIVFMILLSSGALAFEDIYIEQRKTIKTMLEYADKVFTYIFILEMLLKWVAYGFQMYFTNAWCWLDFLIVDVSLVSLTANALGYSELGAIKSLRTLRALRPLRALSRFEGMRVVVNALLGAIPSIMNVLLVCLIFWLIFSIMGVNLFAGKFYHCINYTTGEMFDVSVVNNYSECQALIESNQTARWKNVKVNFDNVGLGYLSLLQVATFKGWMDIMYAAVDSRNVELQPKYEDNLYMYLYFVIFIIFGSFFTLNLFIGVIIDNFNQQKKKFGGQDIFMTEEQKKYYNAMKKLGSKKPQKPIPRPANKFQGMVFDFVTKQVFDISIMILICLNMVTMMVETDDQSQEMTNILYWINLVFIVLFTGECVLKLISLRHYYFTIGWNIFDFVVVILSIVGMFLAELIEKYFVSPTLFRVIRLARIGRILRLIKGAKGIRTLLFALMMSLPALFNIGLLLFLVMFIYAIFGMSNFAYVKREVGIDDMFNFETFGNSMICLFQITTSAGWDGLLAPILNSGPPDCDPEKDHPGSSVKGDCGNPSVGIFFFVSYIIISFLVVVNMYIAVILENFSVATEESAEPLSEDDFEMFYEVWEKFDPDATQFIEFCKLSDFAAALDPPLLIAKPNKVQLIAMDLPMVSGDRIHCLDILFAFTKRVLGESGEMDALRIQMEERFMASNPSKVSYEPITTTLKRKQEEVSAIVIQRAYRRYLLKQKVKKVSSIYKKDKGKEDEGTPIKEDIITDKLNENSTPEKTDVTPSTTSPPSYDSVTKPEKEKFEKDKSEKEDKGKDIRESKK

O=C(Nc1ccc(F)cc1)C1C(=O)N(O)C(=O)c2cc([N+](=O)[O-])ccc21 (centres unmarked)  IC50 (Nucleoprotein, exonuclease domain (N, Machupo virus, UniProt P26578); inhibitor): 11500 nM
O=c1c(OCCCO)c(SSc2cnn(-c3ccccc3)c(=O)c2OCCCO)cnn1-c1ccccc1  IC50 (Sortase A (Bacillus anthracis str. H9401, UniProt P0DPQ5); inhibitor; Bacillus anthracis): 1860 ± 590 nM
C(=C\c1ccccc1)/CN1CCN(C(c2ccccc2)c2ccccc2)CC1  IC50 (Replicase polyprotein 1ab, nsp14 (rep, Severe acute respiratory syndrome-related coronavirus, UniProt P0C6X7); enzyme activity, inhibitor): 9100 ± 700 nM
CC[C@H](C)[C@H](NC(=O)[C@H](C)NC(=O)[C@H](CCC(=O)O)NC(=O)[C@H](CCC(=O)O)NC(=O)[C@H](CC(C)C)NC(=O)[C@H](CCCCN)NC(=O)[C@H](CCCCN)NC(=O)[C@H](CCSC)NC(=O)[C@H](CCC(=O)O)NC(=O)[C@H](Cc1ccc(O)cc1)NC(=O)[C@H](CCC(=O)O)NC(=O)[C@H](CC(C)C)NC(=O)[C@H](CC(=O)O)NC(=O)[C@H](CC(C)C)NC(=O)[C@H](Cc1ccccc1)NC(=O)[C@@H](NC(=O)[C@@H](NC(=O)[C@H](CC(N)=O)NC(=O)[C@@H](NC(=O)[C@H](CCC(N)=O)NC(=O)[C@H](CC(=O)O)NC(=O)[C@H](CC(C)C)NC(=O)[C@H](CO)NC(=O)[C@H](CC(C)C)NC(=O)[C@H](CC(=O)O)NC(=O)[C@@H]1CCCN1C(=O)[C@H](C)N)[C@@H](C)CC)C(C)C)[C@@H](C)O)C(=O)N[C@@H](CCCCN)C(=O)N[C@@H](CCCCN)C(=O)N[C@@H](CC(C)C)C(=O)N[C@@H](CCC(=O)O)C(=O)N[C@@H](CCC(=O)O)C(=O)N[C@@H](CO)C(=O)N[C@@H](Cc1ccc(O)cc1)C(=O)N[C@H](C(=O)N[C@@H](CC(=O)O)C(=O)N[C@@H](CC(C)C)C(=O)N[C@@H](CCCCN)C(=O)N[C@@H](CCC(=O)O)C(=O)N[C@@H](CC(C)C)C(=O)O)[C@@H](C)CC  IC50 (Spike glycoprotein (Severe acute respiratory syndrome coronavirus, UniProt P59594); cell-cell fusion, inhibitor, luciferase fusion; 293T donor, Huh-7 target; 16 h, 37 °C): 32.8 nM
O=C(/C=C/c1ccc(O)cc1)/C(C(=O)Nc1ccccc1)=C(O)/C=C/c1ccc(O)cc1  IC50 (Lethal factor (Bacillus anthracis, UniProt P15917); peptide cleavage, inhibitor; 100 nM enzyme, together with: 3 µM substrate): ~33100 nM
CC[C@H](C)[C@H](NC(=O)[C@H](C)NC(=O)[C@H](CCC(=O)O)NC(=O)[C@H](CCC(=O)O)NC(=O)[C@H](CC(C)C)NC(=O)[C@H](CCCCN)NC(=O)[C@H](CCCCN)NC(=O)[C@H](CCSC)NC(=O)[C@H](CCC(=O)O)NC(=O)[C@H](Cc1ccc(O)cc1)NC(=O)[C@H](CCC(=O)O)NC(=O)[C@H](CC(C)C)NC(=O)[C@H](CC(=O)O)NC(=O)[C@H](CC(C)C)NC(=O)[C@H](Cc1ccccc1)NC(=O)[C@@H](NC(=O)[C@@H](NC(=O)[C@H](CC(N)=O)NC(=O)[C@@H](NC(=O)[C@H](CCC(N)=O)NC(=O)[C@H](CC(=O)O)NC(=O)[C@H](CC(C)C)NC(=O)[C@@H](N)CO)[C@@H](C)CC)C(C)C)[C@@H](C)O)C(=O)N[C@@H](CCCCN)C(=O)N[C@@H](CCCCN)C(=O)N[C@@H](CC(C)C)C(=O)N[C@@H](CCC(=O)O)C(=O)N[C@@H](CCC(=O)O)C(=O)N[C@@H](CO)C(=O)N[C@@H](Cc1ccc(O)cc1)C(=O)N[C@H](C(=O)N[C@@H](CC(=O)O)C(=O)N[C@@H](CC(C)C)C(=O)N[C@@H](CCCCN)C(=O)N[C@@H](CCC(=O)O)C(=O)N[C@@H](CC(C)C)C(=O)O)[C@@H](C)CC  IC50 (Spike glycoprotein Beta variant; cell-cell fusion, inhibitor, luciferase fusion; 293T donor, Huh-7 target; 16 h, 37 °C, dual mutations): 321 nM
Cc1ccc(Cn2cnc3ccccc32)cc1  IC50 (Enoyl-[acyl-carrier-protein] reductase [NADH] (Francisella tularensis subsp. tularensis, UniProt Q5NGQ3)): 90000 nM
CC[C@H](C)[C@H](NC(=O)[C@H](C)NC(=O)[C@H](CCC(=O)O)NC(=O)[C@H](CCC(=O)O)NC(=O)[C@H](CC(C)C)NC(=O)[C@H](CCCCN)NC(=O)[C@H](CCCCN)NC(=O)[C@H](CCSC)NC(=O)[C@H](CCC(=O)O)NC(=O)[C@H](Cc1ccc(O)cc1)NC(=O)[C@H](CCC(=O)O)NC(=O)[C@H](CC(C)C)NC(=O)[C@H](CC(=O)O)NC(=O)[C@H](CC(C)C)NC(=O)[C@H](Cc1ccccc1)NC(=O)[C@H](Cc1ccc(O)cc1)NC(=O)[C@@H](NC(=O)[C@H](CC(N)=O)NC(=O)[C@@H](NC(=O)[C@H](CCC(N)=O)NC(=O)[C@H](CC(=O)O)NC(=O)[C@H](CC(C)C)NC(=O)[C@@H](N)CO)[C@@H](C)CC)C(C)C)C(=O)N[C@@H](CCCCN)C(=O)N[C@@H](CCCCN)C(=O)N[C@@H](CC(C)C)C(=O)N[C@@H](CCC(=O)O)C(=O)N[C@@H](CCC(=O)O)C(=O)N[C@@H](C)C(=O)N[C@@H](Cc1ccc(O)cc1)C(=O)N[C@H](C(=O)N[C@@H](CC(=O)O)C(=O)N[C@@H](CC(C)C)C(=O)N[C@@H](CCCCN)C(=O)N[C@@H](CCC(=O)O)C(=O)N[C@@H](CC(C)C)C(=O)O)[C@@H](C)CC  IC50 (Spike glycoprotein Beta variant; cell-cell fusion, inhibitor, luciferase fusion; 293T donor, Huh-7 target; 16 h, 37 °C, dual mutations): 189 nM
C[C@@H]1NC(=O)[C@H](CCCNC(=N)N)NC(=O)[C@H](CCCNC(=N)N)NC(=O)[C@@H]2CSSC[C@@H]3NC(=O)[C@H](CO)NC(=O)CNC(=O)[C@H]([C@@H](C)O)NC(=O)[C@H](CSSC[C@H](N)C(=O)N[C@@H](CCCCN)C(=O)N[C@@H](CCCNC(=N)N)C(=O)N[C@@H](CCCCN)C(=O)NCC(=O)N[C@@H](CO)C(=O)N[C@@H](CO)C(=O)N2)NC(=O)[C@H](CSSC[C@@H](C(N)=O)NC(=O)[C@H](CCCCN)NC(=O)CNC(=O)[C@H](CC(N)=O)NC(=O)[C@H](CCCNC(=N)N)NC3=O)NC(=O)[C@H](CC(=O)O)NC(=O)[C@H](Cc2ccc(O)cc2)NC(=O)[C@H](CO)NC1=O  IC50 (Cacna1b with α2δ, β3 subunits; Ba2+ current, inhibitor, whole-cell patch clamp; HEK293 expressing α2δ and β3; 22 °C, together with: Ba2+ 20 mM): 793 nM
CC[C@H](C)[C@H](NC(=O)[C@H](C)NC(=O)[C@H](CCC(=O)O)NC(=O)[C@H](CCC(=O)O)NC(=O)[C@H](CC(C)C)NC(=O)[C@H](CCCCN)NC(=O)[C@H](CCCCN)NC(=O)[C@H](CCSC)NC(=O)[C@H](CCC(=O)O)NC(=O)[C@H](Cc1ccc(O)cc1)NC(=O)[C@H](CCC(=O)O)NC(=O)[C@H](CC(C)C)NC(=O)[C@H](CC(=O)O)NC(=O)[C@H](CC(C)C)NC(=O)[C@H](Cc1ccccc1)NC(=O)[C@H](Cc1ccc(O)cc1)NC(=O)[C@@H](NC(=O)[C@H](CC(N)=O)NC(=O)[C@@H](NC(=O)[C@H](CCC(N)=O)NC(=O)[C@H](CC(=O)O)NC(=O)[C@H](CC(C)C)NC(=O)[C@@H](N)CO)[C@@H](C)CC)C(C)C)C(=O)N[C@@H](CCCCN)C(=O)N[C@@H](CCCCN)C(=O)N[C@@H](CC(C)C)C(=O)N[C@@H](CCC(=O)O)C(=O)N[C@@H](CCC(=O)O)C(=O)N[C@@H](CO)C(=O)N[C@@H](Cc1ccc(O)cc1)C(=O)N[C@H](C(=O)N[C@@H](CC(=O)O)C(=O)N[C@@H](CC(C)C)C(=O)N[C@@H](CCCCN)C(=O)N[C@@H](CCC(=O)O)C(=O)N[C@@H](CC(C)C)C(=O)O)[C@@H](C)CC  IC50 (Spike glycoprotein Beta variant; cell-cell fusion, inhibitor, luciferase fusion; 293T donor, Huh-7 target; 16 h, 37 °C): 106 nM
CSCC[C@@H]1NC(=O)[C@H]([C@@H](C)O)NC(=O)[C@H](CCCNC(=N)N)NC(=O)[C@H](CCCNC(=N)N)NC(=O)[C@@H]2CSSC[C@@H]3NC(=O)[C@H](CO)NC(=O)CNC(=O)[C@H]([C@@H](C)O)NC(=O)[C@H](CSSC[C@H](N)C(=O)N[C@@H](CCCCN)C(=O)N[C@@H](CCCNC(=N)N)C(=O)N[C@@H](CCCCN)C(=O)NCC(=O)N[C@@H](CO)C(=O)N[C@@H](CO)C(=O)N2)NC(=O)[C@H](CSSC[C@@H](C(N)=O)NC(=O)[C@H](CCCCN)NC(=O)CNC(=O)[C@H](CC(N)=O)NC(=O)[C@H](CCCNC(=N)N)NC3=O)NC(=O)[C@H](CC(=O)O)NC(=O)[C@H](Cc2ccc(O)cc2)NC1=O  IC50 (Cacna1b with α2δ, β3 subunits; Ba2+ current, inhibitor, whole-cell patch clamp; HEK293 expressing α2δ and β3; 22 °C, together with: Ba2+ 20 mM): 172 nM
CN(C)Cc1ccc(OC(=O)N(C)C)c(Cl)c1  IC50 (ache (Electrophorus electricus, UniProt O42275); enzyme activity, inhibitor, Ellman; 10 min preincubation, pH 8, 23 °C): 14000 ± 1000 nM
CC(=O)N[C@@H](CCCCN)C(=O)N[C@@H](Cc1c[nH]c2ccccc12)C(=O)N[C@H]1CCCCNC(=O)C[C@@H](C(=O)N[C@@H](CCCNC(=N)N)C(N)=O)NC(=O)[C@H](Cc2c[nH]cn2)NC(=O)[C@H](CC(=O)O)NC(=O)[C@H](CCCNC(=N)N)NC1=O  IC50 (Scn2a (Rattus norvegicus, UniProt P04775); ion current, inhibitor, Hill equation fit; rat channel): 52300 ± 2800 nM
OCCNc1nc(N2CCNCC2)c2sc3nc(-c4ccccc4)ccc3c2n1  IC50 (bglR; enzyme activity, inhibitor): 51 ± 1 nM
CC(=NNC(=S)N1CCC1)c1ccccn1  IC50 (Botulinum neurotoxin type A, light chain (Clostridium botulinum, UniProt P0DPI0)): 400 ± 100 nM
CC[C@H](C)[C@H](NC(=O)[C@H](C)NC(=O)[C@H](CCC(=O)O)NC(=O)[C@H](CCC(=O)O)NC(=O)[C@H](CC(C)C)NC(=O)[C@H](CCCCN)NC(=O)[C@H](CCCCN)NC(=O)[C@H](CCSC)NC(=O)[C@H](CCC(=O)O)NC(=O)[C@H](Cc1ccc(O)cc1)NC(=O)[C@H](CCC(=O)O)NC(=O)[C@H](CC(C)C)NC(=O)[C@H](CC(=O)O)NC(=O)[C@H](CC(C)C)NC(=O)[C@H](Cc1ccccc1)NC(=O)[C@H](Cc1ccccc1)NC(=O)[C@@H](NC(=O)[C@H](CC(N)=O)NC(=O)[C@@H](NC(=O)[C@H](CCC(N)=O)NC(=O)[C@H](CC(=O)O)NC(=O)[C@H](CC(C)C)NC(=O)[C@@H](N)CO)[C@@H](C)CC)C(C)C)C(=O)N[C@@H](CCCCN)C(=O)N[C@@H](CCCCN)C(=O)N[C@@H](CC(C)C)C(=O)N[C@@H](CCC(=O)O)C(=O)N[C@@H](CCC(=O)O)C(=O)N[C@@H](C)C(=O)N[C@@H](Cc1ccc(O)cc1)C(=O)N[C@H](C(=O)N[C@@H](CC(=O)O)C(=O)N[C@@H](CC(C)C)C(=O)N[C@@H](CCCCN)C(=O)N[C@@H](CCC(=O)O)C(=O)N[C@@H](CC(C)C)C(=O)O)[C@@H](C)CC  IC50 (Spike glycoprotein (MERS-CoV, UniProt K9N5Q8); cell-cell fusion, inhibitor, luciferase fusion; 293T donor, Huh-7 target; 16 h, 37 °C, dual mutations): 2210 nM
c1nc(N2CCNCC2)c2sc3nc(N4CCOCC4)ccc3c2n1  IC50 (bglR; enzyme activity, inhibitor): 14 ± 8 nM

Excerpt of the above:
O=C(Nc1ccc(F)cc1)C1C(=O)N(O)C(=O)c2cc([N+](=O)[O-])ccc21 (centres unmarked)  IC50 (Nucleoprotein, exonuclease domain (N, Machupo virus, UniProt P26578); inhibitor): 11500 nM
CC[C@H](C)[C@H](NC(=O)[C@H](C)NC(=O)[C@H](CCC(=O)O)NC(=O)[C@H](CCC(=O)O)NC(=O)[C@H](CC(C)C)NC(=O)[C@H](CCCCN)NC(=O)[C@H](CCCCN)NC(=O)[C@H](CCSC)NC(=O)[C@H](CCC(=O)O)NC(=O)[C@H](Cc1ccc(O)cc1)NC(=O)[C@H](CCC(=O)O)NC(=O)[C@H](CC(C)C)NC(=O)[C@H](CC(=O)O)NC(=O)[C@H](CC(C)C)NC(=O)[C@H](Cc1ccccc1)NC(=O)[C@H](Cc1ccc(O)cc1)NC(=O)[C@@H](NC(=O)[C@H](CC(N)=O)NC(=O)[C@@H](NC(=O)[C@H](CCC(N)=O)NC(=O)[C@H](CC(=O)O)NC(=O)[C@H](CC(C)C)NC(=O)[C@@H](N)CO)[C@@H](C)CC)C(C)C)C(=O)N[C@@H](CCCCN)C(=O)N[C@@H](CCCCN)C(=O)N[C@@H](CC(C)C)C(=O)N[C@@H](CCC(=O)O)C(=O)N[C@@H](CCC(=O)O)C(=O)N[C@@H](C)C(=O)N[C@@H](Cc1ccc(O)cc1)C(=O)N[C@H](C(=O)N[C@@H](CC(=O)O)C(=O)N[C@@H](CC(C)C)C(=O)N[C@@H](CCCCN)C(=O)N[C@@H](CCC(=O)O)C(=O)N[C@@H](CC(C)C)C(=O)O)[C@@H](C)CC  IC50 (Spike glycoprotein Beta variant; cell-cell fusion, inhibitor, luciferase fusion; 293T donor, Huh-7 target; 16 h, 37 °C, dual mutations): 189 nM
